Results gathered from unrelated publications.
Several values in a cell are separate wells, animals, samples, runs or records. ± marks the error that the study gave. Converted amounts (≈) assume the structure as drawn.

SMILES	test	system	setting	how to read	endpoint	result
Cn1nccc1[C@]1(CNC(=O)c2ccc(F)c(F)c2-c2ccc(C(F)(F)F)cc2)NC(=O)NC1=O		rat	oral, 1.0 mg/kg		dose-normalised AUC	3 kg·h/L
CO[C@H]1C[C@@H]2CC[C@@H](C)[C@@](O)(O2)C(=O)C(=O)N2CCCC[C@H]2C(=O)O[C@H]([C@H](C)C[C@@H]2CC[C@@H](OC(=O)NCCOCCOCCOCCOCCOCCOCCOCCOCCC(=O)N3CCc4cc(Cn5nc(-c6ccc7oc(N)nc7c6)c6c(N)ncnc65)ccc4C3)[C@H](OC)C2)C[C@@H](O)[C@H](C)/C=C(\C)[C@@H](O)[C@@H](OC)C(=O)[C@H](C)C[C@H](C)/C=C/C=C/C=C/1C	dose-escalation trial	patients with advanced solid tumours	intravenous, 1.6 mg/3 mg weekly, any grade		AEs leading to discontinuation	0%
CCC[C@@](N)(CO)CCc1ccc(OCCCCCC(C)C)cc1		dog	oral, 5 mg/kg		half-life	19.1 h
C[C@@H]1OC(=O)NN=C1c1ccc(-c2ccc(F)cc2)c(C(F)(F)F)c1	phase I trial, measured: muscle spasms worst grade 1	human patients	10 mg loading then 0.5 mg daily		patients with adverse event	100%
NC(=O)[C@H]1CCN(c2ncnc(N)c2F)C[C@@H]1N1CCC[C@@H](Nc2cc(Cl)cc(C(F)(F)F)c2)C1=O		B-cell malignancy patients	oral, 41 mg twice daily, dose		grade ≥3 hyponatraemia	10%
C[C@@H]1NC(=O)[C@H](CCCCNC(=O)CO/N=C/C(=O)NCCCC[C@@H]2NC(=O)[C@@H](Cc3ccccc3)NC(=O)[C@H](CC(=O)O)NC(=O)CNC(=O)[C@H](CCCNC(=N)N)NC2=O)NC(=O)CNC(=O)[C@@H]2CCCN2C(=O)[C@H](CCCCNC(=O)CO/N=C/C(=O)NCCCC[C@@H]2NC(=O)[C@@H](Cc3ccccc3)NC(=O)[C@H](CC(=O)O)NC(=O)CNC(=O)[C@H](CCCNC(=N)N)NC2=O)NC(=O)[C@H](CCCCNC(=O)CN2CCCNCCNCCCNCC2)NC(=O)[C@H](CCCCNC(=O)CO/N=C/C(=O)NCCCC[C@@H]2NC(=O)[C@@H](Cc3ccccc3)NC(=O)[C@H](CC(=O)O)NC(=O)CNC(=O)[C@H](CCCNC(=N)N)NC2=O)NC(=O)CNC(=O)[C@@H]2CCCN2C(=O)[C@H](CCCCNC(=O)CO/N=C/C(=O)NCCCC[C@@H]2NC(=O)[C@@H](Cc3ccccc3)NC(=O)[C@H](CC(=O)O)NC(=O)CNC(=O)[C@H](CCCNC(=N)N)NC2=O)NC1=O [copper-64 labelled]	PET imaging	mouse, U-87 MG tumour xenograft, tumor	intravenous, 24 h		tissue uptake	2.49 ± 0.04 %ID/g
C[C@H]1COCCN1c1nc(NCc2cccnc2C(F)(F)F)c2cccnc2n1		anaesthetized rat	intravenous, 10 mg/kg	reference: control	PR change	13.8%
CCc1ccc(CC/C=C/c2ccc3c(c2)C(=O)CC3)cc1		Sprague-Dawley rat, male	oral, 120 mg/kg/day, 14 days		Lymphocyte percentage	79.6%
C[C@H]1CN(C(=O)CC#N)[C@]12CCN(c1ncnc3[nH]ccc13)C2		minipig, female	dermal, 20 mg/kg repeated, 9 months		Cmax at NOAEL	5 ng/mL
CC(C)CC(=O)OC[C@H]1O[C@@](C#N)(c2ccc3c(N)ncnn23)[C@H](O)[C@@H]1O	plasma protein binding	mouse plasma	0.9 µM, time not given		recovery	91.4%
C=CC(=O)Nc1cc(Nc2nccc(Nc3cc(Cl)c(F)cc3C(C)(C)O)n2)c(OC)cc1N1CC[C@@H](N(C)C)C1	treatment-emergent adverse events	human	oral, 300 mg, phase I clinical trial		incidence of vomiting	25.5%
CCN1[C@@H](C(=O)NC23CCC(C(=O)O)(CC2)CC3)[C@H](c2cccc(Cl)c2F)[C@]2(C(=O)Nc3cc(Cl)ccc32)C12CCCCC2		patients with advanced solid tumours	oral, 200 mg		AST elevation incidence	0%
CNC(=O)c1cc(Oc2ccc(NC(=O)Nc3cc(C(C)(C)C)nn3-c3ccc4ncccc4c3)c(F)c2)ccn1	vomiting, NCI CTC v3.0	human patients	oral, 150 mg twice daily, tablet, dose at onset		related SAE	3%
Cn1ncc(-c2nc(N[C@H]3CC[C@H](N)CC3)ncc2Cl)c1CC1CC1	HPLC-MS/MS	patients, plasma	oral, 11 mg, day 5		AUC	1820 ng·h/mL
CC(C)C[C@H](NC(=O)[C@H](CCCCN)NC(=O)OCC1c2ccccc2-c2ccccc21)C(=O)N[C@H](C(=O)N[C@@H](Cc1ccccc1)C(=O)N[C@@H](Cc1ccccc1)C(=O)N[C@@H](CCCCN)C(=O)NCC(=O)N[C@@H](Cc1ccccc1)C(=O)N[C@@H](C)C(=O)N[C@@H](Cc1c[nH]c2ccccc12)C(=O)N[C@@H](CC(N)=O)C(=O)N[C@H](C(=O)N[C@H]1CSSC[C@@H](C(=O)N[C@@H](Cc2c[nH]cn2)C(=O)N[C@@H](CCCNC(=N)N)C(=O)N[C@@H](CCCNC(=N)N)C(=O)N[C@@H](C)C(=O)N[C@@H](CC(N)=O)C(N)=O)NC(=O)[C@H](C(C)C)NC(=O)[C@H](CCCNC(=N)N)NC(=O)[C@H](C(C)C)NC(=O)CNC(=O)[C@H](CC(N)=O)NC(=O)[C@H](CCCNC(=N)N)NC(=O)[C@H](Cc2ccc(O)cc2)NC(=O)[C@H](C(C)C)NC1=O)C(C)C)C(C)C	HPLC	mouse liver homogenate	2560 µM, 4.00 h, 50 mg/mL tissue		remaining peptide	50.1% and 47.7% and 43.4%
O=C(Nc1ccccc1)C1CCN(C(=O)Oc2cccnc2)CC1	adverse event reporting	healthy women	oral, 100 mg, 9 days		subjects with ear discomfort	15.4%
COc1ncccc1-c1cnn2ccc(N3CCN(C(=O)OC(C)C)CC3)nc12		rat, CCI cold allodynia model, plasma	oral, 3 mg/kg, 240 min		free drug concentration	7.8 nM
N[C@@H]1c2ccccc2OC12CCN(c1cnc3c(N4CCCc5ncccc54)n[nH]c3n1)CC2		advanced metastatic solid tumour patients	oral, 150 mg once daily, cycle 1, 21 days		dose-limiting toxicity	75%

SMILES	test	system	setting	how to read	endpoint	result
N=C(N)NCCC[C@@H](NC(=O)[C@@H](N)Cc1ccccc1)C(=O)N[C@@H](Cc1ccccc1)C(=O)N[C@@H](CCCCN)C(N)=O	LC-MS	human	5 mg, 23.83 h		mean fraction excreted in urine	2.21%
O=S(=O)(Nc1ccccc1)c1ccc(NC(=S)Nc2ccccc2)cc1		female mice, small intestine	oral, 20 mg/kg daily 14 days	reference: body weight	relative organ weight	2.64%
CCN1CCN(Cc2ccc(Nc3ncc(F)c(-c4cc(F)c5nc6n(c5c4)[C@H](C)CCC6)n3)nc2)CC1		advanced solid tumour patients	dose not given, Phase Ia monotherapy		Hypokalemia incidence, any grade	20.8%
CC(=O)c1c(C)c2cnc(Nc3ccc(C4CCN(CCS(C)(=O)=O)CC4)cn3)nc2n(C2CCCC2)c1=O		HR+/HER2- advanced breast cancer patients	oral, 100 mg bid, all grades, monotherapy arm		patients with neutropenia	93.3%
O=C1Nc2cc3[nH]nc(-c4ccncc4)c3cc2CN1Cc1ccccc1	CTCAE v4.03	advanced solid tumour patients	intravenous, 4.8 mg/kg		patients with ≥1 TEAE	100%
CN1CC[C@@H](c2c(O)cc(O)c3c(=O)cc(-c4ccc(C(F)(F)F)cc4Cl)oc23)[C@@H]1CO	measured: Hypotension	relapsed B-cell malignancies	oral, 100 mg, grade 3-4, intermittent dosing		patients with adverse event	0%
CC(C)[C@@H](CN1CC[C@@](C)(c2cccc(O)c2)[C@@H](C)C1)NC(=O)[C@@]1(C)Cc2ccc(O)cc2CN1		rat, brain	intraperitoneal, 5 mg/kg		AUCtotal	1380 ng·h/g
COc1ccnc(C(=O)N[C@H]2COC(=O)[C@H](Cc3ccccc3)[C@@H](OC(=O)C(C)C)[C@H](C)OC2=O)c1OCOC(=O)C(C)C	liver toxicity	mouse	oral, 90 day		NOAEL	39.6 mg/kg/day
C[C@]1(CO)Cc2ncn(-c3ccc(C#N)c(Cl)c3)c2C(=O)O1		Japanese subjects	80 mg single dose		drug-related orthostatic hypotension incidence	0%
C=CC(=O)N1CC[C@H](n2nc(C#Cc3cc(OC)cc(OC)c3)c3c(N)ncnc32)C1		human patients	oral, dose not given, QD regimen, adverse drug reaction, added: sevelamer hydrochloride		any adverse drug reaction, any grade	100%
CC[C@H](C)[C@H](NC(=O)[C@H](Cc1ccccc1)NC(=O)[C@H](CCC(=O)O)NC(=O)[C@H](CCCNC(=N)N)NC(=O)[C@H](C)NC(=O)[C@H](C)NC(=O)[C@H](CCC(N)=O)NC(=O)[C@H](CCC(=O)O)NC(=O)[C@H](CCC(=O)O)NC(=O)[C@H](CC(C)C)NC(=O)[C@H](Cc1ccc(O)cc1)NC(=O)[C@H](CO)NC(=O)[C@H](CO)NC(=O)[C@@H](NC(=O)[C@H](CC(=O)O)NC(=O)[C@H](CO)NC(=O)[C@@H](NC(=O)[C@H](Cc1ccccc1)NC(=O)[C@@H](NC(=O)CNC(=O)[C@H](CCC(=O)O)NC(=O)[C@H](C)NC(=O)CCc1cnc[nH]1)[C@@H](C)O)[C@@H](C)O)C(C)C)C(=O)N[C@@H](C)C(=O)N[C@@H](Cc1c[nH]c2ccccc12)C(=O)N[C@@H](CC(C)C)C(=O)N[C@H](C(=O)N[C@@H](CCCNC(=N)N)C(=O)NCC(=O)N[C@@H](CCCNC(=N)N)C(=O)N[C@@H](CCCCNC(=O)COCCOCCNC(=O)COCCOCCNC(=O)CC[C@H](NC(=O)CCCCCCCCCCCCCCCCC(=O)O)C(=O)O)C(=O)NCC(=O)NCC(=O)N[C@@H](CO)C(=O)N[C@@H](CCCCNC(=O)[C@H](CCCCNc1c(NCCCCCN(O)C(=O)CCC(=O)NCCCCCN(O)C(=O)CCC(=O)NCCCCCN(O)C(C)=O)c(=O)c1=O)Nc1c(NCCCCCN(O)C(=O)CCC(=O)NCCCCCN(O)C(=O)CCC(=O)NCCCCCN(O)C(C)=O)c(=O)c1=O)C(=O)O)C(C)C [zirconium-89 labelled]	ex vivo gamma counting	male Sprague-Dawley rats, stomach	intravenous, 1 nmol, 24 h		tissue uptake	0.195 %ID/g
C=CCNc1c(O)cc2c(O)c1C[C@@H](C)C[C@H](OC)[C@H](O)[C@@H](C)/C=C(\C)[C@H](OC(N)=O)[C@@H](OC)/C=C\C=C(/C)C(=O)N2		unresectable or metastatic STS, GIST, other	intravenous, 150 mg/m^2		patients with arthralgia TEAE	0%
Cc1c(C(=O)O)ccc2c3n(nc12)[C@@H]1[C@H](C3)N(CC2CC2)[C@@]2(C(=O)Nc3cc(Cl)ccc32)[C@H]1c1cccc(Cl)c1F		athymic nude mice, orthotopic brain tumour PDX, tumour	1 mg/kg single, 24 h		tumour concentration	11 ± 4 nM
Cc1ccc(F)c2cc(C(=O)N[C@@H]3CCC[C@H](N4CC[C@H](N(C)S(C)(=O)=O)C4)C3)[nH]c12		CD1 mouse, plasma	intravenous, 1 mg/kg, 4 h		plasma concentration	18.8 ng/mL
Nc1ncc(-c2nc(N3CCOCC3)nc(N3CCOCC3)n2)c(C(F)F)n1	shake flask	buffer	24 h, pH 6.8, 25 °C		thermodynamic solubility	3.75 µM (≈ 1.48 µg/mL)
O=C(c1ccc(F)c(F)c1Nc1ccc(I)cc1F)N1CC(O)([C@@H]2CCCCN2)C1		patients aged sample A to sample B years	oral, dose not given		treatment-related adverse events	86%
C[C@@H](c1nc(-c2ccc(C#N)cc2)cs1)[C@](O)(Cn1cncn1)c1cc(F)ccc1F	measured: investigations (SOC)	humans	oral, dose not given, added: midazolam		subjects with TEAEs	8.7%
COc1cc2c(Oc3ccc4[nH]c(C)cc4c3F)ccnc2cc1OCC1(N)CC1		paediatric refractory sarcoma patients	10 mg		TBIL elevation incidence	0%

A few entries again:
SMILES	test	system	setting	how to read	endpoint	result
CCC[C@@](N)(CO)CCc1ccc(OCCCCCC(C)C)cc1		dog	oral, 5 mg/kg		half-life	19.1 h
C[C@@H]1OC(=O)NN=C1c1ccc(-c2ccc(F)cc2)c(C(F)(F)F)c1	phase I trial, measured: muscle spasms worst grade 1	human patients	10 mg loading then 0.5 mg daily		patients with adverse event	100%
NC(=O)[C@H]1CCN(c2ncnc(N)c2F)C[C@@H]1N1CCC[C@@H](Nc2cc(Cl)cc(C(F)(F)F)c2)C1=O		B-cell malignancy patients	oral, 41 mg twice daily, dose		grade ≥3 hyponatraemia	10%
C[C@@H]1NC(=O)[C@H](CCCCNC(=O)CO/N=C/C(=O)NCCCC[C@@H]2NC(=O)[C@@H](Cc3ccccc3)NC(=O)[C@H](CC(=O)O)NC(=O)CNC(=O)[C@H](CCCNC(=N)N)NC2=O)NC(=O)CNC(=O)[C@@H]2CCCN2C(=O)[C@H](CCCCNC(=O)CO/N=C/C(=O)NCCCC[C@@H]2NC(=O)[C@@H](Cc3ccccc3)NC(=O)[C@H](CC(=O)O)NC(=O)CNC(=O)[C@H](CCCNC(=N)N)NC2=O)NC(=O)[C@H](CCCCNC(=O)CN2CCCNCCNCCCNCC2)NC(=O)[C@H](CCCCNC(=O)CO/N=C/C(=O)NCCCC[C@@H]2NC(=O)[C@@H](Cc3ccccc3)NC(=O)[C@H](CC(=O)O)NC(=O)CNC(=O)[C@H](CCCNC(=N)N)NC2=O)NC(=O)CNC(=O)[C@@H]2CCCN2C(=O)[C@H](CCCCNC(=O)CO/N=C/C(=O)NCCCC[C@@H]2NC(=O)[C@@H](Cc3ccccc3)NC(=O)[C@H](CC(=O)O)NC(=O)CNC(=O)[C@H](CCCNC(=N)N)NC2=O)NC1=O [copper-64 labelled]	PET imaging	mouse, U-87 MG tumour xenograft, tumor	intravenous, 24 h		tissue uptake	2.49 ± 0.04 %ID/g
C[C@H]1COCCN1c1nc(NCc2cccnc2C(F)(F)F)c2cccnc2n1		anaesthetized rat	intravenous, 10 mg/kg	reference: control	PR change	13.8%
CCc1ccc(CC/C=C/c2ccc3c(c2)C(=O)CC3)cc1		Sprague-Dawley rat, male	oral, 120 mg/kg/day, 14 days		Lymphocyte percentage	79.6%
